# Published values gathered from unrelated publications.
# Compare with care: the assays were run in different laboratories. Values joined by “and” are separate records of one study, mostly repeats; a detail may differ. ± marks the error that the study gave.
SMILES,cell line,assay,system,conditions,scale,endpoint,result
CN1CCN(C2(CNC3CCN(c4cccc(-c5cc6cc(F)ccc6[nH]5)c4)CC3)CCC2)CC1,U-251,,,,,CC50,6.43 µM
CC(c1ccccc1)(c1ccc(O)cc1)c1ccc(O)cc1,HepG2 spheroids,Hoechst flow cytometry,,"1 µM, 96 h",,G2 phase cells,17.8 ± 6.77%
CN1CCN(S(=O)(=O)c2cc([N+](=O)[O-])ccc2N(CCOS(C)(=O)=O)CCOS(C)(=O)=O)CC1,sample BA T-ALL PDX cells,cell viability,ex vivo,"48 h, together with: AKR1C3 inhibitor",reference: with inhibitor over alone,IC50 fold change,93.8
COc1cc(CCC[P+](c2ccccc2)(c2ccccc2)c2ccccc2)c(OC)c2c1OCO2.[I-],UO-31,SRB,,,,TGI,-4.36 log M
Cn1cc(C2=C(c3cn(C4CCN(Cc5ccccn5)CC4)c4ccccc34)C(=O)NC2=O)c2ccccc21,iCell Cardiomyocytes (hiPSC-derived),CellTiter-Glo,,"concentration not given, 24 h",reference: control,ATP level,103%
N[C@@H]1C[C@H]1c1ccccc1,HBL-1,,,"1 µM, 120 h",,viability,102%
C[C@]12CC[C@H](O)C[C@H]1CC[C@@H]1[C@@H]2CC[C@]2(C)[C@@H](c3ccc(=O)oc3)CC[C@]12O,MCF7,"RT-qPCR, measured: AGR2",,"20 nM, 48 h, unit not given, together with: estradiol",reference: untreated,mRNA level,1.88 and 1.8 and 1.84
CC(C)(C)c1cc(C=C(C#N)C#N)cc(Br)c1O,HeLa expressing Ub(G76V)-GFP,"Ub(G76V)-GFP degradation, inhibitor, cycloheximide chase",,12 µM,,inhibition,23%
COc1c(C)c2c(c(O)c1C/C=C(\C)CCC(=O)O)C(=O)OC2,brain cancer cell lines,cell proliferation,,average over lines,,IC50,1.05 µM
CC[C@H](C)[C@H](NC(=O)CN)C(=O)NCC(=O)N[C@@H](C)C(=O)N[C@H](C(=O)N[C@@H](CC(C)C)C(=O)N[C@@H](CCCCN)C(=O)N[C@H](C(=O)N[C@@H](CC(C)C)C(=O)N[C@H](C(=O)N[C@H](C(=O)NCC(=O)N[C@@H](CC(C)C)C(=O)N1CCC[C@H]1C(=O)N[C@@H](C)C(=O)N[C@@H](CC(C)C)C(=O)N[C@H](C(=O)N[C@@H](CO)C(=O)N[C@@H](Cc1c[nH]c2ccccc12)C(=O)N[C@H](C(=O)N[C@@H](CCCCN)C(=O)N[C@@H](CCCNC(=N)N)C(=O)N[C@@H](CCCCN)C(=O)N[C@@H](CCCNC(=N)N)C(=O)N[C@@H](CCC(N)=O)C(=O)N[C@@H](CCC(N)=O)C(=O)N[C@@H](CS)C(N)=O)[C@@H](C)CC)[C@@H](C)CC)[C@@H](C)O)[C@@H](C)O)C(C)C)C(C)C,human red blood cells,,,pH 5.5,reference: Triton X-100,EC50,5 µM
Cn1cncc1C1=CN(c2ncnc3[nH]cnc23)CCS1,UO-31,,,renal cancer,,CC50,> 200 µM
Oc1cc(Cl)ccc1Oc1ccc(Cl)cc1Cl,human iPSC-derived cardiomyocytes,"MyBP-C/MYH ratio, plate-normalised SD score",,"concentration not given, primary screen",direction not given,activity score,17
CC(C)N1CCC(NC2CCN(c3cccc(-c4cc5cc(F)ccc5[nH]4)c3)CC2)CC1,RXF 393,,,,,CC50,6.1 µM
O=c1c(O)c(-c2ccc(O)c(O)c2)oc2cc(O)cc(O)c12,induced SH-SY5Y Aβ-GFP cells,,,5 µM,,total neurite length,31.8 to 34 µm
CC1=C(O)C(=O)C=C2C1=CC=C1[C@@]2(C)CC[C@@]2(C)[C@@H]3C[C@](C)(C(=O)O)CC[C@]3(C)CC[C@]12C,HepG2,"cell viability, CCK-8",,6 µM,higher = more viable cells,optical density,0.17 a.u. and 0.168 a.u. and 0.184 a.u. and 0.186 a.u. and 0.173 a.u.
COc1ccc([C@H]2c3[nH]c4ccc(Cl)cc4c3CCN2C(=O)Oc2ccc(Cl)cc2)cc1,human dermal fibroblasts with PBMC,"cytokine secretion, measured: sIL-6",,"0.01 µM, 48 h",,inhibition,91%
COc1c(CCC[P+](c2ccccc2)(c2ccccc2)c2ccccc2)cc2c(c1OC)OCO2.[I-],RXF 393,SRB,,,,TGI,-4.93 log M

# For quick reference, copied from above:
SMILES,cell line,assay,system,conditions,scale,endpoint,result
N[C@@H]1C[C@H]1c1ccccc1,HBL-1,,,"1 µM, 120 h",,viability,102%
C[C@]12CC[C@H](O)C[C@H]1CC[C@@H]1[C@@H]2CC[C@]2(C)[C@@H](c3ccc(=O)oc3)CC[C@]12O,MCF7,"RT-qPCR, measured: AGR2",,"20 nM, 48 h, unit not given, together with: estradiol",reference: untreated,mRNA level,1.88 and 1.8 and 1.84
CC(C)(C)c1cc(C=C(C#N)C#N)cc(Br)c1O,HeLa expressing Ub(G76V)-GFP,"Ub(G76V)-GFP degradation, inhibitor, cycloheximide chase",,12 µM,,inhibition,23%
